Published values of several laboratories.
Every numbered part comes from another study and shows a few of its results, in no order. Positions count from the first letter of the parent shown.

Study 1 — effect on: peptide-MHC binding; form: peptide; concentration: concentration not given; measurement: binding
Target: HLA class I histocompatibility antigen, A alpha chain, allele A*25:01 (Homo sapiens, UniProt P04439)
RQRHYFDSA: inactive
SELTVSPPD: inactive
AQKLATKPV: inactive
RASHFRKLF: inactive
LVKSAWLSL: inactive

Study 2 — target: CCND2, cyclin fold, Cln2 fusion (human); method: yeast growth competition, sequencing; matrix: yeast; setting: strong parent motif; baseline: not given; direction: higher = stronger binding; measurement: normalised enrichment score; starting sequence: viral docking peptide; YKVKRRLVFGADD
YKVKRRLVFGAPD [D12P]: 0.948
YKVKRRLVHGADD [F9H]: -0.0945
YKVKRRLVKGADD [F9K]: -0.161
YKVKRELVFGADD [R6E]: 0.667
YKVKRRLVMGADD [F9M]: 0.219
YKVKRRVVFGADD [L7V]: -0.096
YKSKRRLVFGADD [V3S]: 0.799
YKVKRRLVFGARD [D12R]: 0.174
YKVKRRLVWGADD [F9W]: 0.424
YKVPRRLVFGADD [K4P]: 1.01
YKVKRRLVNGADD [F9N]: 0.138
YKVKFRLVFGADD [R5F]: 0.0747
YYVKRRLVFGADD [K2Y]: 0.538
YKVKRRLVFGMDD [A11M]: 1.18
YKVKRRIVFGADD [L7I]: 1.64
YKVKRRLVFGRDD [A11R]: 1.31
YKVKRDLVFGADD [R6D]: 0.47
YKVKRRLIFGADD [V8I]: 1.15

Study 3 — method: RNA Bind-n-Seq; form: RNA; matrix: in vitro; concentration: 20 nM; setting: 6-mer, flanks averaged, single round; together with: 150 mM KCl; baseline: input library; direction: higher = stronger binding; measurement: 6-mer enrichment (R)
Target: TAR DNA-binding protein 43, full length, His tag (TARDBP, Homo sapiens, UniProt Q13148, residues 1-414)
UCAUAC: 0.543
CUUAAA: 0.586
UGAGGU: 1.45
CGUGCC: 0.808
UUGAUC: 0.585
CGCUCG: 0.746
AAACUU: 0.584
GGCGCU: 1.49

Study 4 — target: UBE2D2 UBC core domain (UniProt P62837); method: yeast two-hybrid; matrix: yeast; setting: mostly zero background; baseline: not given; direction: higher = stronger interaction; measurement: lacZ reporter activity
Chain of UniProt P62837 (whole entry, looked up): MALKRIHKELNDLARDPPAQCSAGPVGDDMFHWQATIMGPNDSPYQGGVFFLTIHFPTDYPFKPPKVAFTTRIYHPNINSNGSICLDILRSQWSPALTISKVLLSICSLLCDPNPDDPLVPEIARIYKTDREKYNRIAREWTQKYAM
B1: VPS8 RING domain (UniProt Q8N3P4); chain TRGLNPKQDYCSICLQQYKRRQEMADEIIVFSCGHLYHSFCLQNKECTVEFEGQTRWTCYKCSSSNKVGKLSE
B2: ZNRF4 RING domain (UniProt Q8WWF5); chain VRTFTWHNDLCAICLDEYEEGDQLKILPCSHTYHCKCIDPWFSQAPRRSCPVCKQSVAATEDSF
B3: MKRN3 RING domain (UniProt Q13064); chain FAVQRGMDKVCGICMEVVYEKANPNDRRFGILSNCNHSFCIRCIRRWRSARQFENRIVKSCPQCRVTSELVIPSE
B4: TRIM41 RING domain (UniProt Q8WV44); chain PVQTLQEEAVCAICLDYFTDPVSIGCGHNFCRVCVTQLWGGEDEEDRDELDREEEEEDGEEE
B5: RUFY1 RING domain (UniProt Q96T51); chain QALKGHAWLKDDEATHCRQCEKEFSISRRKHHCRNCGHIFCNTCSSNELALPSYPKPVRVCDSCHTLLLQRCSSTAS
B6: RNF103 RING domain (UniProt O00237); chain WPADMLHCTECVVCLENFENGCLLMGLPCGHVFHQNCIVMWLAGGRHCCPVCRWPSYKKKQPY
B7: MARCHF1 RING domain (UniProt Q8TCQ1); chain TAPRSQSRLSVCPSTQDICRICHCEGDEESPLITPCRCTGTLRFVHQSCLHQWIKSSDTRCCELCKYDFIMETKLKPLRKWE
LEALSSDFLACKICLEQLRAPKTLPCLHTYCQDCLAQLADGGRVRCPECRETVPVPPEGV (TRIM56 RING domain (UniProt Q9BRZ2)): 0
B1 (VPS8 RING domain): 0
FAEQPSVKLCCQLCCSVFKDPVITTCGHTFCRRCALKSEKCPVDNVKLTVVVNNI (TRAF7 RING domain (UniProt Q6Q0C0)): 0
ASPKIFQKTKCSICNSALELPSVHFLCGHSFHQHCFESYSESDADCPTCLPENRKVMDMI (VPS11 RING domain (UniProt Q9H270)): 0
B2 (ZNRF4 RING domain): 12700
B3 (MKRN3 RING domain): 0
B4 (TRIM41 RING domain): 0
ASEEEFQFLRCQQCQAEAKCPKLLPCLHTLCSGCLEASGMQCPICQAPWPLGADTP (PML RING domain (UniProt P29590)): 0
B5 (RUFY1 RING domain): 0
B6 (RNF103 RING domain): 16800
B7 (MARCHF1 RING domain): 0

Repeated from above (study 1):
SELTVSPPD: inactive
AQKLATKPV: inactive
